Experimental data gathered from unrelated publications.
Every numbered part comes from another study and shows a few of its results, in no order. Changes are numbered by the printed parent chain.

Set 1
Target: Sal-like protein 4, full length isoform B (SALL4, Homo sapiens, UniProt Q9UJQ4-2, residues 1-616)
Method: universal PBM
Form: double-stranded DNA, one strand shown
Medium: in vitro
Tested at: not given
Notes: 8-mer, flanks averaged, mean of replicates
Direction: higher = stronger binding
| Strand | E-score |
| --- | --- |
| CGATGTCA | -0.0143 |
| ACAACGTG | 0.0072 |
| TCAATAGA | 0.16 |
| ATTTGCTA | 0.257 |
| CGAAGTCA | 0.0118 |
| ATCTGTCA | 0.118 |
| GACAATCA | 0.0565 |
| GACGCGGA | -0.258 |
| ACAGGCTG | -0.161 |
| AGCCTCAG | -0.215 |
| CGAGCCTC | -0.262 |
| ATAAGAAT | 0.342 |
| CGAAGACA | -0.21 |
| CTCACTGA | -0.221 |
| AGAAATGA | 0.281 |
| GTCTGCGA | -0.169 |
| ACGAGCGC | -0.199 |
| AAGTACAA | 0.201 |
| ACCTACAC | 0.00739 |
| CGTGCCCA | -0.149 |
| ATGTACTA | 0.188 |
| AACATTGC | -0.0333 |
| AGTATCTG | -0.0418 |
| CGGCTGTA | -0.244 |
| CTATTGAG | 0.0595 |

Set 2
Target: CCNB1, cyclin fold, Cln2 fusion (human)
Method: yeast growth competition, sequencing
Medium: yeast
Notes: weak parent motif
Reference: not given
Direction: higher = stronger binding
Parent: ANKRD17 docking peptide (human); PSVRRQLFVTVVK
| Change | normalised enrichment score |
| --- | --- |
| F8A | 1.23 |
| R4A | 0.992 |
| S2A | 1.31 |
| L7A | 1.52 |
| R5K | 0.328 |
| T10A | 1.72 |
| F8L | 0.206 |
| V12A | 0.809 |
| R5A L7A | 0.403 |
| V9A | 0.625 |

Set 3
Target: FOS, bZIP domain (human)
Method: DHFR protein complementation
Medium: yeast
Notes: single substitutions, most at no-binding floor
Reference: wild-type JUN-FOS pair
Direction: higher = stronger binding
Parent: JUN, bZIP domain (human); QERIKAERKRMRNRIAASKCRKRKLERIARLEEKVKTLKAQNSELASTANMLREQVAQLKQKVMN; partner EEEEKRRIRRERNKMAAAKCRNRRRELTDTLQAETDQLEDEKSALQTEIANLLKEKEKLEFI
| Change | binding fitness |
| --- | --- |
| L52E | -0.995 natural log |
| A29I | -0.137 natural log |
| Q58A | -0.0448 natural log |
| A49I | -0.445 natural log |
| A46H | -0.0815 natural log |
| N42I | 0.0293 natural log |
| N42V | 0.182 natural log |
| L45C | -1.19 natural log |
| L52S | -1.31 natural log |
| Q55I | -0.024 natural log |
| K36H | -0.153 natural log |
| R53G | -0.928 natural log |
| E33L | -0.131 natural log |
| V35P | -1.21 natural log |
| L38A | -0.874 natural log |
| E54C | -0.325 natural log |

Set 4
Target: RNA binding protein fox-1 homolog 2, RRM domain, GST-SBP tag (RBFOX2, Homo sapiens, UniProt O43251-10, residues 100-194)
Method: RNA Bind-n-Seq
Form: RNA
Medium: in vitro
Tested at: 365 nM
Notes: natural RNA segment, single round, ends assumed
Reference: no-protein control
Direction: higher = stronger binding
Target sequence (chain): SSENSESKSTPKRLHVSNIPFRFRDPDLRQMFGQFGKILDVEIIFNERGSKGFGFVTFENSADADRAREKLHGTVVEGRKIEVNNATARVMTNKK
| Strand | RBNS enrichment (R) |
| --- | --- |
| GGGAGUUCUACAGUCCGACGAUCAAUUGAAUGGCAGUUAUCACUAAAUAAAAUUCUUUUCUGAGUCUCUCCCGAGAGUGGCAGUCCUUUGAAUCGCUUCCCAGGGUGAAAGAUGGAAAGAGAUGAGCCUAAGGUGGAAUUCUCGGGUGCCAA | 0.323 |
| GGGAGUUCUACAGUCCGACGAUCACUGAGUAGGCGGCGAUUUUUGUAUGUUAUGAACAUGCAGUUCAUUAUUUUGUGGUUCUAUUUUACUUUGUACUUGUGUUUGCUUAAACAAAGUGACUGUUUGGCUUAUAUGGAAUUCUCGGGUGCCAA | 0.527 |
| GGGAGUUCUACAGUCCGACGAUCCCCAGACACCAGCUCCUCUGGCCUGGACUCAACUAUUGAAAUCUCUCUGAGACCUCUGCAAAGAUGUCCCUUUUAUGCCCUUGACCUUGACUCACCAUGGGCUGCUGGGGUGGAAUUCUCGGGUGCCAA | 0.258 |
| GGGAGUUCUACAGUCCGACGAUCAGGGGACUUGUAGGAAUCUGCCUUCCAGCCCAGACCCCCAGUGUAUUUUGUCCAAGUUCACAGUAGAGUAGGGUAGAAGGAAAGCAUGUCUCUGCUUCCAUGGCUUCCUGUGGAAUUCUCGGGUGCCAA | 1.84 |
| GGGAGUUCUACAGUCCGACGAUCGAGAAAGAGGCAGUCUGUUGGAGAGGCAUACUUGAGCAGGAUAAAGAUCCUAAAUGGCAGCCUUUCAGAUAGGCAUGUCUGACACCUGCUGAGGCCUCUACCAGUUCACUUGGAAUUCUCGGGUGCCAA | 0.463 |
| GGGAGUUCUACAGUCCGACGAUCGCUGAGGAGACUAAGUUAGCCAUGUGGGCAGUGAAGCAUGCCAAUGUGAUCAAUCCCUAGUAAAAGCCCUGGACACCUAGGCAUGGGUGAGCUACUCUGGUUGGUAAUACUGGAAUUCUCGGGUGCCAA | 1.25 |
| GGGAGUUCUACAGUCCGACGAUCUUCCUUUUAGUUGCCACAAAUAUUCAGUUUUGUUUUAUCCAUCAUGUCCCCCAUAUGCAUGUAAUGAAACAUUUGUGAAAAUCACUUUAAUAAUAAACAGGAAAUGAACCUGGAAUUCUCGGGUGCCAA | 1.4 |
| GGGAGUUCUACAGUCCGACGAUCGAAAACCUGAUGAGGGCAAACCAGUUAAACCUAACACCCUGCCUUGUCUGGGCUCAUCACCUCUCCCUAUCCCAGACUAACUUUACUGUGAAAUCCUACCACAUUCCAUGUGGAAUUCUCGGGUGCCAA | 0.476 |
| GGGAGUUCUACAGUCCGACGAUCAUCAGGUUAGGCAGUAUAAAGAAUAGGACUUGUUUUUGUUUUUGUUUUGUUGCACUGAAGUUUGAUAAAUAGUGUUAUUGAGAGAGAUGUGUAAUUUUUCUGUAUAGACAUGGAAUUCUCGGGUGCCAA | 0.432 |
| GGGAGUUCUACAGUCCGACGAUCAGGAGCUGUGUGGAGUGAAGGAGAGAAAGUGUGGGAGAUCUCAUUGCUGGAAGGAGAAAAGGAAGGAAUCCCCCGAAAAUCAAAGCAGUCAGAAAAACCAGAGCGACUGUUGGAAUUCUCGGGUGCCAA | 1.23 |
| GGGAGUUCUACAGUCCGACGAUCAUCAUUACCCUGAGCGAGCUGGAAGGGUGGUCACCCUGCACCUAGCCAGCCAUGCAGGCUCCAUCAGGCACCGUGUCCCCAGGGGUGGGCAUGAACCAGUGCGCCACAUGUGGAAUUCUCGGGUGCCAA | 0.457 |
| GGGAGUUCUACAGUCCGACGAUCUGUAAAUGGAAAUUUUUCCUUAAAAUACAACACAAUGAUGUCUGUAUAAAUCUGUCUGUUUAGAAUCUGUGCUGUGUAAGGGCAUUCGUACUCAUGCUGUUACUGUACUUUGGAAUUCUCGGGUGCCAA | 0.434 |

Set 5
Target: ABI1, truncated, D143A, DHFR fusion (Arabidopsis thaliana)
Method: DHFR PCA, deep sequencing
Medium: yeast
Notes: methotrexate growth selection, single substitutions
With: (+)-ABA 58 µM
Reference: wild-type fitted maximum
Direction: higher = stronger binding
Parent: PYL1, truncated, DHFR fusion (Arabidopsis thaliana); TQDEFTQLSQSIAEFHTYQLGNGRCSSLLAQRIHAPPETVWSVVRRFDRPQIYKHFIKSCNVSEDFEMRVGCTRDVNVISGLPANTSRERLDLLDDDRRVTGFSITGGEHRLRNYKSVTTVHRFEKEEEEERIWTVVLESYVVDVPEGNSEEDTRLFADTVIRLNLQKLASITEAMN; partner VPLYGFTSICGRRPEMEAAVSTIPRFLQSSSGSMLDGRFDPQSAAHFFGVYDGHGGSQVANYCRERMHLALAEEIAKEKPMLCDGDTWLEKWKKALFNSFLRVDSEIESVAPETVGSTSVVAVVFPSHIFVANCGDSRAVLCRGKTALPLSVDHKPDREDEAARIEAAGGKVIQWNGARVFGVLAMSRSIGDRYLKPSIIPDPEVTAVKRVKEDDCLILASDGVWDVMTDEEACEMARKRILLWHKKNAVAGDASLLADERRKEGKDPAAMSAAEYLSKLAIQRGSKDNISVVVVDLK
| Change | relative binding score [%] |
| --- | --- |
| L138Y | 53.2 |
| L29M | 76.6 |
| T17D | 63.9 |
| T135M | -5.1 |
| L93E | 77 |
| W41S | -4.66 |
| M176T | 82.2 |
| V143C | 79.2 |
| L169Y | -11.9 |
| I79F | 86 |
| V78N | 6.92 |
| L8K | 49.3 |
| T1C | 89 |
| G108R | 8.32 |
| R155Y | 23.4 |
| V62C | 73.7 |

Other studies, line by line
| Substance | target | test | system | setting | scale | endpoint | result |
| --- | --- | --- | --- | --- | --- | --- | --- |
| PhoQ, residues 284 288 289 292 302 303 QWGLFV | PhoP, residues 12 14 15 18 19 LHATL (Escherichia coli, UniProt P23836) | Sort-seq, measured: YFP reporter | E. coli | PhoQ-PhoP variant library, with: 10 µM Mg2+ | reference: high Mg2+ state, higher = stronger signaling | fold induction | 18 |

A few entries again (set 5):
| Change | relative binding score [%] |
| --- | --- |
| V78N | 6.92 |
| M176T | 82.2 |
| I79F | 86 |
| T135M | -5.1 |
| L8K | 49.3 |
